Measured values pooled from the literature.
A part holds a random share of what one study measured.

Series 1
Target: Prothrombin, mature alpha-thrombin (F2, Homo sapiens, UniProt P00734)
Technique: aptamer microarray, sandwich
Form: DNA with 2'F-ANA
Matrix: in vitro
Tested at: 200 nM
Setting: whole 15-mer aptamer, many near background
Added: Cy3 exosite-II aptamer, 400 nM
Direction: higher = stronger binding
Strand: GGTTGGTGTGGTTGG
Modification	mean fluorescence intensity [a.u.]
2'F-ANA at 1 2 6 9 10 11 13 14 15	123
2'F-ANA at 2 5 8 9 10 14 15	47.7
2'F-ANA at 2 7 8 10 11 12 14 15	88.1
2'F-ANA at 2 6 12 13 15	508
2'F-ANA at 1 3 4 5 6 8 9 14 15	49.7
2'F-ANA at 1 4 6 11 12 13 14 15	201

Series 2
Target: Interferon regulatory factor 7, full length, phosphomimetic (IRF7, Homo sapiens, UniProt Q92985, residues 1-503, S101K/S471D/S472D/S475D/S476D/S477D/S483D/S484D/S487D)
Technique: protein-binding microarray
Form: double-stranded DNA, one strand shown
Matrix: in vitro
Tested at: 250 nM
Setting: 60-bp whole probe
Added: salmon DNA 0.4 mg/ml
Relative to: random background probes
Direction: higher = stronger binding
All sequences stand within: GCCTAGCAC … GTCTTGATTCGCTTGACGCTGCTG
Target sequence (chain): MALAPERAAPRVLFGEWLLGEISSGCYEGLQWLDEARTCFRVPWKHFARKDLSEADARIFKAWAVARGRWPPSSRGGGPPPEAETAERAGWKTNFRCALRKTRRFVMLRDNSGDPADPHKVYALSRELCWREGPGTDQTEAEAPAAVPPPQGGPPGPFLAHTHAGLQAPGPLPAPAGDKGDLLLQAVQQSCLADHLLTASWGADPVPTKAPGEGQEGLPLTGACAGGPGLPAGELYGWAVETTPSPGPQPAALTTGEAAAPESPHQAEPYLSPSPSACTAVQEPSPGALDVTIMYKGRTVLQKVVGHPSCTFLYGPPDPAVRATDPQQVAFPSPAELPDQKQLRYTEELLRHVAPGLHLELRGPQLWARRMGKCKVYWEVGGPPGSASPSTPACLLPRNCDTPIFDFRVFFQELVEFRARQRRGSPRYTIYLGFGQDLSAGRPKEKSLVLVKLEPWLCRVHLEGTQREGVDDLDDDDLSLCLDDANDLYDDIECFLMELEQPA
Strand	log fluorescence [z-score]
GACGCTTTCGGTTCCGGGACGTGCTAG	3.66
GACGGTTTCCTTTCCCTAACGTGCTAG	5
TCAAGAATGCCTTTAATACTGTGCTAG	-0.325
GACGGTCACCTTCTCCTGACGTGCTAG	-0.393
TTAGATTTCAGGACTGGATTAGTGCTA	0.196
TCATGCCTATTTTTCACACTGTGCTAG	0.412

Series 3
Target: Sal-like protein 4, full length isoform B (SALL4, Homo sapiens, UniProt Q9UJQ4-2, residues 1-616)
Technique: universal PBM
Form: double-stranded DNA, one strand shown
Matrix: in vitro
Tested at: not given
Setting: 8-mer, flanks averaged, mean of replicates
Direction: higher = stronger binding
Strand	E-score
CCATTTTA	0.151
AACGAGAA	0.237
ATAGTGAA	0.208
ACGCAGCT	-0.214
ACCAGTCC	-0.361
ATGAAGCG	-0.0644

Single results of other studies
Substance	target	assay	test system	conditions	how to read	endpoint	value
PhoQ, residues 284 288 289 292 302 303 TLASMF	PhoP, residues 12 14 15 18 19 LWHVM (Escherichia coli, UniProt P23836)	Sort-seq, item: YFP reporter	E. coli	PhoQ-PhoP variant library, added: 10 µM Mg2+	relative to: high Mg2+ state, higher = stronger signaling	fold induction	12.9
